# Published values gathered from unrelated publications.
# Each line is one published result; not all experiments were run side by side. Numbers after ± are the reported error.
# Cell line: HCT-116
SMILES,assay,setting,scale,quantity,value
CC/C=C\C/C=C\C/C=C\C/C=C\C/C=C\C/C=C\CCC(=O)Nc1ccn(C2OC(CO)C(O)C2(F)F)c(=O)n1 (stereo not shown),NCI60 screen,,,CC50,44.4 µM
C[P+](c1ccccc1)(c1ccccc1)c1ccccc1,"cell growth or viability, MTT",72 h,,GI50,2.32 µM
"C=C(C)CC(OC)C(O)C(=O)NC(OC)C1CC(=C)C(C)(C)C(CC(O)C(C)C2Cc3c(C)c(O)cc(O)c3C(=O)O2)O1 (single isomer, unassigned; (+))",cell growth or viability,,,IC50,0.001 µM
COC1CC(=O)N(C)C=CCCCC(=O)N(C)C(C(C)C)C(=O)N(C)C(CC(C)C)C(=O)OC(C(C)C)CC(C)C1 (stereo not shown),"RNA sequencing, item: autophagy","20 µM, 12 h",direction not given,pathway activation z-score,2
OC[C@H]1[C@@H](O)[C@@H](O)CN1Cc1ccc(I)cc1,"cell growth or viability, MTS",72 h,,IC50,> 200 µM
CC(C)C[C@H](NC(=O)[C@H](C)NC(=O)[C@H](CCCCN)NC(=O)[C@H](C)NC(=O)[C@H](C)NC(=O)CNC(=O)[C@H](CCCCN)NC(=O)[C@H](CC(C)C)NC(=O)[C@H](CC(C)C)NC(=O)[C@H](CC(=O)O)NC(=O)[C@H](CCCCN)NC(=O)[C@H](Cc1ccccc1)NC(=O)CN)C(=O)N[C@H](C(=O)N[C@@H](CCCCN)C(=O)N[C@H](C(=O)N[C@H](C(=O)N[C@@H](CC(C)C)C(=O)N[C@@H](Cc1ccccc1)C(N)=O)C(C)C)[C@@H](C)O)C(C)C,"cell growth or viability, CCK-8",,,IC50,18.8 µM
CCCc1cc(OC)c(OC)c(OC)c1OC,"cell growth or viability, MTT",72 h,,GI50,> 250 µM
Cc1cc(O)cc(-c2nc(Nc3cc(C(F)(F)F)cc(C(F)(F)F)c3)ncc2-c2ccnc(Cl)c2)c1,annexin V-FITC/PI flow cytometry,"10 µM, 48 h, unit not given",relative to: control,apoptotic cells,2.1
C=CCc1cc2c(c(OC)c1OC)OCO2,"cell growth or viability, MTT",72 h,,GI50,> 250 µM
COc1ccccc1/C=C1\SC(=O)N(CC(=O)Nc2ccc(C(=O)Nc3ccc([N+](=O)[O-])cc3)cc2)C1=O,MTT,,relative to: IC50 Vero over IC50 HCT-116,selectivity index,19.5
N=C(N)NCCC[C@H](NC(=O)[C@H](Cc1c(F)c(F)c(F)c(F)c1F)NC(=O)[C@H](CCCNC(=N)N)NC(=O)[C@@H](CCCNC(=N)N)NC(=O)CCCCCNC(=O)CCCc1ccc(N(CCCl)CCCl)cc1)C(=O)N[C@@H]1CSCc2ccccc2CSC[C@@H](C(=O)N[C@H](CCCNC(=N)N)C(=O)N[C@@H](CC2CCCCC2)C(=O)N[C@@H](CCCNC(=N)N)C(=O)N2Cc3ccccc3C2C(N)=O)NC(=O)[C@H](Cc2cccc3ccccc23)NC(=O)[C@H](Cc2ccc(O)cc2)NC1=O (stereo partly shown),,,,EC50,7.5 ± 1.1 µM
CC[C@H](C)[C@H](NC(=O)[C@H](CO)NC(=O)[C@H](CCCNC(=N)N)NC(=O)[C@@H]1CCCN1C(=O)[C@H](Cc1c[nH]c2ccccc12)NC(=O)[C@H](CCCNC(=N)N)NC(=O)[C@H](CCCNC(=N)N)NC(C)=O)C(=O)N[C@@H](CC(C)C)C(=O)N[C@@H](CC(=O)O)C(=O)N[C@@H](CCC(=O)O)C(=O)N[C@@H](Cc1c[nH]cn1)C(=O)N[C@H](C(=O)N[C@@H](CCCNC(=N)N)C(=O)N[C@@H](CCCNC(=N)N)C(=O)N[C@H](C(=O)N[C@@H](Cc1c[nH]c2ccccc12)C(=O)N[C@@H](CCCNC(=N)N)C(=O)NCCCCCC(=O)N[C@@H](C)C(=O)N[C@@H](CC(C)C)C(=O)N[C@@H](C)C(=O)N1CCC[C@H]1C(=O)N[C@@H](Cc1ccc(O)cc1)C(=O)N[C@H](C(=O)N1CCC[C@H]1C(=O)N[C@@H](Cc1ccc(O)cc1)C(=O)NCC(=O)N[C@@H](CCCNC(=N)N)C(=O)N[C@@H](CCCCN)C(=O)N[C@@H](CCCCN)C(=O)N[C@@H](CCCNC(=N)N)C(=O)N[C@@H](CCCNC(=N)N)C(=O)N[C@@H](CCC(N)=O)C(=O)N[C@@H](CCCNC(=N)N)C(=O)N[C@@H](CCCNC(=N)N)C(=O)N[C@@H](CCCNC(=N)N)C(N)=O)[C@@H](C)CC)C(C)C)C(C)C,"cell growth or viability, CCK-8",,,IC50,9.95 µM
COc1cc(C)c(OC)c2c1OCO2,"cell growth or viability, MTT",72 h,,GI50,> 250 µM
CC1=CCC23OC2(C)CCC2C(C[N+](C)(C)C)C(=O)OC2C13.[I-] (stereo not shown),"cell growth or viability, SRB",8.3 µM,,inhibition,81.8%
CC(C)C[C@H](NC(=O)[C@H](CC(C)C)NC(=O)[C@H](CC(=O)O)NC(=O)[C@H](CCCCN)NC(=O)[C@H](Cc1ccccc1)NC(=O)CN)C(=O)N[C@@H](CCCCN)C(=O)N[C@H]1CSCc2ccc(cc2)CSC[C@@H](C(=O)N[C@@H](CC(C)C)C(=O)N[C@H](C(=O)N[C@@H](CCCCN)C(=O)N[C@H](C(=O)N[C@H](C(=O)N[C@@H](CC(C)C)C(=O)N[C@@H](Cc2ccccc2)C(N)=O)C(C)C)[C@@H](C)O)C(C)C)NC(=O)[C@H](CCCCN)NC(=O)[C@H](C)NC(=O)[C@H](C)NC1=O,"cell growth or viability, CCK-8",,,IC50,10.8 µM
CC(C)=CCC/C(C)=C/C[P+](c1ccccc1)(c1ccccc1)c1ccccc1,"cell growth or viability, MTT",72 h,,GI50,0.079 µM
CC(C)C[C@H](NC(=O)[C@H](C)NC(=O)[C@H](CCCCN)NC(=O)[C@H](C)NC(=O)[C@H](C)NC(=O)[C@@H]1CSCc2ccc(cc2)CSC[C@H](NC(=O)[C@H](CCCCN)NC(=O)[C@H](Cc2ccccc2)NC(=O)CN)C(=O)N[C@@H](CC(C)C)C(=O)N[C@@H](CC(C)C)C(=O)N[C@@H](CCCCN)C(=O)N1)C(=O)N[C@H](C(=O)N[C@@H](CCCCN)C(=O)N[C@H](C(=O)N[C@H](C(=O)N[C@@H](CC(C)C)C(=O)N[C@@H](Cc1ccccc1)C(N)=O)C(C)C)[C@@H](C)O)C(C)C,"cell growth or viability, CCK-8",,,IC50,11.8 µM
COc1cc(C)cc2c1OCO2,cell growth or viability,72 h,,GI50,> 250 µM
[Ga+3].[O-]c1ccc(Br)c2cccnc12.[O-]c1ccc(Br)c2cccnc12.[O-]c1ccc(Br)c2cccnc12,"cell growth or viability, MTT",72 h,,IC50,1.2 µM
COc1ccc(NC(=O)c2ccc(NC(=O)CN3C(=O)S/C(=C\c4ccccc4OC)C3=O)cc2)cc1,MTT,,relative to: IC50 Vero over IC50 HCT-116,selectivity index,4.26
COc1c(C)cc2c(c1OC)OCO2,"cell growth or viability, MTT",72 h,,GI50,> 250 µM
CCCCn1cc(C(=O)O)c(=O)c2cc(F)c(Nc3cccc(Cl)c3)c(N)c21,"cell proliferation, SRB",,,IC50,0.84 µM
"C=C(C)CC(OC)C(O)C(=O)NC(OC)C1CC(OC(C)=O)C(C)(C)C(CC(O)C(C)C2Cc3c(C)c(O)cc(O)c3C(=O)O2)O1 (single isomer, unassigned; (+))",cell growth or viability,,,IC50,0.002 µM
COc1cc(C)c(OC)c(OC)c1OC,"cell growth or viability, MTT",72 h,,GI50,> 250 µM
CC(=O)O[C@@]12CO[C@@H]1C[C@H](O)[C@@]1(C)C(=O)[C@H](O)C3=C(C)[C@@H](OC(=O)[C@H](OC(=O)CNC(=O)CCSSCCC(=O)NCCCCCC(=O)N[C@H](CCCNC(=N)N)C(=O)N[C@@H](CCCNC(=N)N)C(=O)N[C@@H](Cc4c(F)c(F)c(F)c(F)c4F)C(=O)N[C@@H](CCCNC(=N)N)C(=O)N[C@@H]4CSCCS(=O)(=O)CCSC[C@@H](C(=O)N[C@H](CCCNC(=N)N)C(=O)N[C@@H](CC5CCCCC5)C(=O)N[C@@H](CCCNC(=N)N)C(=O)N5Cc6ccccc6C5C(N)=O)NC(=O)[C@H](Cc5cccc6ccccc56)NC(=O)[C@H](Cc5ccc(O)cc5)NC4=O)[C@@H](NC(=O)OC(C)(C)C)c4ccccc4)C[C@@](O)([C@@H](OC(=O)c4ccccc4)[C@H]21)C3(C)C (stereo partly shown),,,,EC50,8.4 ± 1.5 µM

# A few entries again:
SMILES,assay,setting,scale,quantity,value
COc1ccc(NC(=O)c2ccc(NC(=O)CN3C(=O)S/C(=C\c4ccccc4OC)C3=O)cc2)cc1,MTT,,relative to: IC50 Vero over IC50 HCT-116,selectivity index,4.26
CC(C)=CCC/C(C)=C/C[P+](c1ccccc1)(c1ccccc1)c1ccccc1,"cell growth or viability, MTT",72 h,,GI50,0.079 µM
CCCc1cc(OC)c(OC)c(OC)c1OC,"cell growth or viability, MTT",72 h,,GI50,> 250 µM
